Experimental data pooled from the literature.
Numbered parts are unrelated; each lists some results of a single study.

Set 1 — technique: RNA Bind-n-Seq; form: RNA; matrix: in vitro; concentration: 365 nM; relative to: no-protein control; direction: higher = stronger binding
Target: RNA binding protein fox-1 homolog 2, RRM domain, GST-SBP tag (RBFOX2, Homo sapiens, UniProt O43251-10, residues 100-194)
Setting: natural RNA segment, single round, ends assumed
Shared flanks, not repeated: GGGAGUUCUACAGUCCGACGAUC … UGGAAUUCUCGGGUGCCAA
Construct (chain): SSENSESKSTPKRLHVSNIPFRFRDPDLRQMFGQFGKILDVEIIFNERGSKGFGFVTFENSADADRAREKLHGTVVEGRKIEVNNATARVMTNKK
Sequence	RBNS enrichment (R)
CUUUUCUCACUCUAGCGCCAAUACUGGCCUGAAGGCUAGAUCCCCAGCGAAAUUCUUGUUCAGGCUGGGUCUGUCGACUUUGACUCUGCUAUUUAUAGAGCCAAUGUGGG	0.329
AAUACACUUGGAUCACAUUCACUUCCUGUGGAAAAGCUAGCUUUCCCAUGCAGUCAAAGCUUAUAAAGUUAUUUGCCUUAGGCAAAGCCAUUCAUUUCUUUUACCUAUAG	0.439
AAAAAACAUGUGUCCUAGCUGGGCAUAGUGGUGCAUACCUUUAAUCCCAGCACUUGGGAGGCAGAGGCAGGUGAAUUUCUAAGUUCAAGGCCAGCUUGGUCUAUAGAGUG	0.201
UUUGUUCACUUUUUAAACUAAAAUAGGAACAUCCGACACACACCGUUUGCAUCGUCUUCUCCCUUGAUAUUUUAAGCAUUUUCCCAUGUCAUGAGUUUCUCAGAAACAUG	0.63
GAAUGGUAACAGAGCCAGCGCUGAAGUCUCCUUUCUUCCUCCCAUCUGGAAGAACAUCAAGAUAUCUUUUUGUGGAUCAAGUUUGAGUACUUGAUCAUUUUUAUAUUACU	0.741
CCUAUCCCAUACACGGGGCAGGAGGACGCCACAGACUGGACGCUGAGCGGCCCAGCUCUGGGGGGCACGAGGUCACCUCCGAUGCCACUUACCAGCCUUUCUGAUUCUUU	0.239
AAAGUUGAGCUGUAUUUUUGUUGUUGAUUUAUCUGGAUUUUUUUUAAAGCCUUCUAAAACCCAGUGAAUUCAAUACCUUAAUUAGUACAUACUAUCUUAUGUAAUGCAUA	0.745
CCGCCAGUCCAUCCUAGACACUCCCAGAGGCUGCUAGCUCCGCCCCUCUGGCAUGGCUUUCCUUUCCCAUCGCCUUCGGAGGCCAUUUUGUCUUGAAGUCAAUGCAUGCU	4.1
AAUAAAUAUUCCCAUAAUUUAGAAAAGGAUGUCGACUUGCUAAUUUCAGAAAUAAUUAUUCAUUUUUAAAAAGCCCCUUUUAAAGCAUCUACUUGAAGAUUGGUAUAAUU	1.19
GCCCACCAUGUGGCUGCAGGCCAAGCUCUUCAUUGCUGACCAUGAAGAGACCUAGUUACCUGCCAAGGGAUUCCCCUUCCCUCCUCCUCAGGGUGGGGUGAACAAGGCUC	0.407
AGGGGUUGUAUCUUCCUUCUUACCUGUUCAUCAACCAGCCCUCUCAUUGCUGCUGCAAGUCUGGCUCUUUGCCUCUGCUGUGCCAGGCCUCCAUGGUGUCUGCAUAGAGC	0.358
CAACCCAGUUGUUCCAGCUGUUCACAACCAGUGUGUGAUUUUGCUUAGUUGGUGCCCAUUCUGCACCAGUUGUUUUACCCCUGCCGAUAACCAGCAGUCAGAGAUUCUUU	0.671

Set 2 — technique: universal PBM; form: double-stranded DNA, one strand shown; matrix: in vitro; concentration: not given; direction: higher = stronger binding
Target: Sal-like protein 4, full length isoform B (SALL4, Homo sapiens, UniProt Q9UJQ4-2, residues 1-616)
Setting: 8-mer, flanks averaged, mean of replicates
Sequence	E-score
ACTGCAAC	-0.233
GTACGACA	0.0626
CGGGGCAC	-0.228
AGCGAAAA	0.061
ACAGAAGT	0.175
TAATTAAA	0.364
CTTAAGAA	0.242
AAAACGGT	0.0236
CGGCGAAA	-0.0959
AAAGGGAG	-0.102
AGGAAAGG	0.00259
ACTTTACC	0.216
CCCTGCCG	-0.335
ACTCGTAT	0.12
CCGGATGC	-0.353
CGACAATA	0.272
CCAGGAAG	-0.0955
CACTTGGG	0.0365
AGAGTATA	0.203
AGGCTGGA	-0.209
GGGCACGA	-0.0909
GAAGCTCA	-0.093
GTGGACTA	-0.054
AGTCGACA	0.124
AGGATTGC	-0.104

Set 3 — technique: aptamer microarray, sandwich; form: DNA with 2'F-ANA; matrix: in vitro; concentration: 200 nM; added: Cy3 exosite-II aptamer, 400 nM; direction: higher = stronger binding; sequence: GGTTGGTGTGGTTGG
Target: Prothrombin, mature alpha-thrombin (F2, Homo sapiens, UniProt P00734)
Setting: whole 15-mer aptamer, many near background
Modification	mean fluorescence intensity
2'F-ANA at 2 5 6 8 13 14	61.1 a.u.
2'F-ANA at 2 4 5 6 7 11 15	56.5 a.u.
2'F-ANA at 1 4 6 7 9 12 14 15	85.6 a.u.
2'F-ANA at 8 11 12 13 14 15	334 a.u.
2'F-ANA at 1 2 3 10 11 13 14	50.5 a.u.
2'F-ANA at 2 4 5 7 12 13 14	45.6 a.u.
2'F-ANA at 2 5 7 10 12 13 15	47.4 a.u.
2'F-ANA at 4 6 8 14 15	94.3 a.u.
2'F-ANA at 1 2 4 5 7 10 11 12 14 15	48 a.u.
2'F-ANA at 2 3 5 11 13 15	70.2 a.u.
2'F-ANA at 1 2 3 5 6 9 10 11 12 14	49.3 a.u.
2'F-ANA at 1 4 5 7 10 13 15	45.5 a.u.
2'F-ANA at 1 3 4 5 8 9 11 12 14	44.4 a.u.
2'F-ANA at 1 2 3 4 6 8 10 11 12 13	70 a.u.
2'F-ANA at 1 2 3 4 5 6 11 12 13 15	67.8 a.u.
2'F-ANA at 1 3 4 6 7 9 13 14	59.1 a.u.
2'F-ANA at 1 4 5 6 7 8 11 12	93.4 a.u.
2'F-ANA at 2 3 4 7 8 11 13 14	347 a.u.
2'F-ANA at 5 6 9 10 11 12 13 14	42.8 a.u.
2'F-ANA at 1 2 5 6 7 9 12 13 15	72.8 a.u.
2'F-ANA at 2 3 4 5 6 7 8 9 10 11 12 13	82.5 a.u.
2'F-ANA at 6 7 9 10 14	110 a.u.
2'F-ANA at 1 3 4 6 7 12	383 a.u.
2'F-ANA at 1 2 4 7 8 9 11 12	251 a.u.

Set 4 — technique: RNA Bind-n-Seq; form: RNA; matrix: in vitro; concentration: 100 nM; relative to: input RNA pool; direction: higher = stronger binding
Target: RING finger protein unkempt homolog, zinc fingers 1-6, SBP tag (UNK, Homo sapiens, UniProt Q9C0B0, residues 30-357)
Chain of UniProt Q9C0B0 (30-357, looked up): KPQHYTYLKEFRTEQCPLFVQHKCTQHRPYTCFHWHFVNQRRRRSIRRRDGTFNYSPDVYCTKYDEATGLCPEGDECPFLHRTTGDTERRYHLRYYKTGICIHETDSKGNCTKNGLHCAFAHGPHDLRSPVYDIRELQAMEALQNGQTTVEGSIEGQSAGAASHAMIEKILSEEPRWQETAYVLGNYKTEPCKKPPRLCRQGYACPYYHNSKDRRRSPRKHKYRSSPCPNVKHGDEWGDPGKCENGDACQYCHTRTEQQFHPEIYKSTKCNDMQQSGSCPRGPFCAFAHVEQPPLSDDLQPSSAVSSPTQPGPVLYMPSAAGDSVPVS
Setting: RNA with constant flanks, vertebrate orthologous sites, ends assumed
Shared flanks, not repeated: GGGAGUUCUACAGUCCGACGAUC … CAACAGAGGAUUGAGCAUCA
Sequence	bound/input enrichment
CCUGGAUAUCAGUUAGAAUGGGUUCUUCUUCUACUUCUCUCACAAGGGAAAAAGCCCCAAUAGAUUCCUUACACAUCUGAUGAUACUGUUCUGUCUCAUUUUCUGUUUUUACAUAGGCAU	0.504 ratio
UCUGCGUAGCAAUUAGAGUGGGUUCUCCCACUCGUCCUGUCACAAGGAAGAAAGCUCAAAUAGGUUCUUUACACAUCUGAUUAUGCUGUUCUGUUUCUCUUUUCUAUUUUUACAUAUACA	1.42 ratio
AAUUUUCUUAUUUUAGGUAUCAUUGCCCAAUGCCCAAGAUCUUUUAUGUUCAGCUGACUGUAGGAAAUAAUGAAUUUUUUGGGGAAGGAAAGACUCGACAAGCUGCUAGACACAAUGCUG	1.42 ratio
UUUUAAAGUCAUUUUUCACAUUUCCUGUAAAUAGUGGAUAAUCAUUUUUAUUUUAUUUUUAAGUGCUGUUUUAACAUGUGGACAGAUCAUAAAUGUACUUGCUGAAUUCAUUCUUUUUUU	0.676 ratio
UUCAGUCAUGGAGAAAAAGAUAUUAAAAUAGUUUUAUGGCAUUGAUCCUCAUUUAUCAUGUUUACAAAUAUUAGAGUUCUUGUCUACCUACAAGAGGAGUGGAUGCUAAUUACAGAGAAA	0.806 ratio
AAUUUUUUAAAGUUUUUUAAUUUAUUUUUUUCUUUUGGGGGUAAAGUUCGCUCUACCAAAUAGUGAUCGUAACAAAUUGAUCUGUUAUGGAUGUUGCUAUAGUGACAUGCAAUUAUAUCU	0.719 ratio
UUUCUAAUAUUUAAUUUACUCCAUUUAAAUUUUCAUUUACUGAACUUUAGACAUCCUAAUCUGCAUUUUUGUUGAAACUGAUAUAUUGACUGUUCUCACCCAAGUCCUUUUAUAAACUGU	0.942 ratio
UUCUUUUCCAGGUGGGAUGUAGUGGAAAAGUAAUAGGAAUUGAUCACAUUAAAGAGCUAGUUGAUGACUCCAUAAAUAAUGUCAGAAAGGACGACCCAACGCUUCUGUCCUCUGGCAGGG	0.445 ratio
AAGUAGUUUUAAGCUUGUUUGCACAGUUCUUUUUUCCAUUGGAAAUGGAAUUCAUUGCCUUAGGUCUUUUUAAAUAGUGUACUAUUAUUGUUGGGGCUGGCUCUAUGCUUGAAAACCAGU	2.24 ratio
CAGGGUGUACCUGUGGGGCACUGCUGGCCGCUUAUUGUUGUUUAAUUUGUGACCUUGACAUCAUAGAUAGGAUUUUUUUUUUUAUUUAAAGAUAUUAAGACUUAAUUCACUAAAAUUUAU	0.445 ratio
CUUAAUUAGAGGGUAGUAUAUGUUUCAUAAAGAAGAGUCUUUAUAAUUUUGUUUGUCAUAUAGUAUUUCGGAAUUUGUAUAAUGAGGAUGUUUAGAAGCCAUAUCAAUGGCUUUUUUUAA	0.57 ratio

For quick reference, copied from above (set 2):
Sequence	E-score
ACTTTACC	0.216
CCCTGCCG	-0.335
ACTCGTAT	0.12
CCGGATGC	-0.353
CGACAATA	0.272
CCAGGAAG	-0.0955
CACTTGGG	0.0365
AGAGTATA	0.203
AGGCTGGA	-0.209
GGGCACGA	-0.0909
GAAGCTCA	-0.093
